# Published values of several laboratories.
# Lines come from different studies, so protocols differ. Values joined by “and” are separate records of one study, mostly repeats; a detail may differ.
SMILES,organism,assay,system,conditions,how to read,endpoint,result
Nc1ncnc2c1ncn2[C@@H]1O[C@@H]2COP(=O)(O)O[C@H]3[C@@H](O)[C@H](n4cnc5c(=O)[nH]cnc54)O[C@@H]3COP(=O)(O)O[C@H]2[C@H]1O,West Nile virus,"RNA sequencing, measured: signaling, interferon gamma, R-HSA-877300",HFF-1 cells,"concentration not given, upregulated pathway",baseline: WNV-infected untreated cells,fold enrichment,8.43
C=CC[C@@H]1c2ccc(OC)c(OC)c2CN2CCc3cc4c(cc3[C@H]12)OCO4,Staphylococcus aureus,,"P2rx7 A312V/A312V mice, skin wound infection","dose not given, day 1",baseline: day 0,relative wound size,1.22 and 0.69 and 1.07 and 0.94
CN1CCN(S(=O)(=O)c2cc([N+](=O)[O-])ccc2N(CCOS(C)(=O)=O)CCOS(C)(=O)=O)CC1,Homo sapiens,"cell viability, resazurin or CellTiter-Glo","sample C BCP-ALL PDX cells, ex vivo",48 h,,IC50,0.0473 µM
CS(=O)(=O)CCCn1c(Cn2c(=O)n(CC(F)(F)F)c3ccncc32)cc2cc(Cl)ccc21,respiratory syncytial virus,RT-qPCR,"hospitalized infants 1-24 months, nasal swab","oral, 6, 4.5 or 3 mg/kg daily, day 28, mid dose by age cohort",baseline: baseline,LS mean viral load change,-5.1 log10 copies/mL
CCCCc1ccc(CNc2nc(N(C)C)nc(N(C)C)c2/N=N/c2ccc(Cl)cc2)cc1,Plutella xylostella,leaf dipping,,25 mg/L,,mortality,76.7%
CC[C@H](C)[C@H](NC(=O)[C@H](C)NC(=O)[C@H](CCCCN)NC(=O)[C@H](CC(C)C)NC(=O)[C@H](C)NC(=O)[C@@H](NC(=O)[C@H](Cc1c[nH]cn1)NC(=O)[C@H](CC(C)C)NC(=O)[C@@H](NC(=O)[C@@H](NC(=O)[C@H](CCCCN)NC(=O)[C@H](C)NC(=O)[C@H](C)NC(=O)[C@H](CO)NC(=O)[C@H](CCCCN)NC(=O)[C@H](Cc1ccccc1)NC(=O)[C@@H](NC(=O)[C@H](CCCCN)NC(=O)[C@H](CC(C)C)NC(=O)[C@H](Cc1ccccc1)NC(=O)[C@H](CO)NC(=O)[C@H](CCCCN)NC(=O)[C@H](Cc1c[nH]c2ccccc12)NC(=O)[C@H](CCCCN)NC(C)=O)[C@@H](C)O)[C@@H](C)O)C(C)C)[C@@H](C)O)C(=O)N[C@@H](CO)C(=O)N[C@@H](CO)C(N)=O,Klebsiella pneumoniae,,ATCC 1706,,,MBC90,16 µg/mL
CSC1=NC[C@]2(S1)C(=O)Nc1ccccc12,Trypanosoma cruzi,[3H]uracil incorporation,amastigotes in rat L6E9 myoblasts,72 h,,IC50,16.1 µM
CC(C)CNC(=O)[C@@H](N)Cc1ccc(OP2(=O)CO[C@@H](Cn3cnc4c(N)ncnc43)CO2)cc1 (stereo partly drawn),human cytomegalovirus,viral replication,,,,IC50,0.3 µM
CC[C@H](C)[C@H](NC(=O)[C@H](CC(C)C)NC(=O)[C@H](CC(C)C)NC(=O)[C@H](Cc1c[nH]cn1)NC(=O)[C@H](CCCCN)NC(=O)[C@H](Cc1c[nH]cn1)NC(=O)[C@H](CCCNC(=N)N)NC(=O)[C@@H]1CCCN1C(=O)[C@H](Cc1ccc(O)cc1)NC(=O)[C@H](CC(C)C)NC(=O)[C@H](CCC(N)=O)NC(=O)[C@@H](N)CO)C(=O)N[C@@H](CCCCN)C(=O)N[C@@H](CCCNC(=N)N)C(=O)N[C@@H](CO)C(=O)N[C@@H](CC(C)C)C(=O)N[C@@H](CCCNC(=N)N)C(=O)N[C@@H](CS)C(=O)N[C@@H](CCCNC(=N)N)C(=O)N[C@@H](CCCCN)C(=O)N[C@@H](CS)C(=O)O,Micrococcus luteus,,NCTC 2665,,,MBC,32 µg/mL
O=C(NNc1ccccc1)c1nnc(CC23CC4CC(CC(C4)C2)C3)o1,Botryosphaeria dothidea,"fungal growth, inhibitor",,50 µg/mL,,inhibition,100%
Cl.N=C(CC(O)c1cc2c(F)cc(F)cc2c2cc(C(F)(F)F)ccc12)Nc1ccc(Br)cc1 (stereo not drawn),Plasmodium berghei,Peters suppressive test,"ANKA, infected mice","oral, 4 x 10 mg/kg, day 4",baseline: untreated control,parasitemia reduction,99.7%
CCOC(=O)COc1ccc2ccc3oc([N+](=O)[O-])cc3c2c1,Mycobacterium marinum,REMA,ATCC BAA-535,,,MIC90,0.016 µg/mL

# For quick reference, copied from above:
SMILES,organism,assay,system,conditions,how to read,endpoint,result
CCCCc1ccc(CNc2nc(N(C)C)nc(N(C)C)c2/N=N/c2ccc(Cl)cc2)cc1,Plutella xylostella,leaf dipping,,25 mg/L,,mortality,76.7%
